Measured values collected from several papers.
Protocols differ between the studies behind these lines. “And” joins repeats or separate records; there may be more than shown. ± gives the spread as reported.
MAPK8: Mitogen-activated protein kinase 8 (MAPK8, Homo sapiens, UniProt P45983)
GRM4: Metabotropic glutamate receptor 4 (GRM4, Homo sapiens, UniProt Q14833)
RPA1 N-terminal domain: Replication protein A 70 kDa DNA-binding subunit, N-terminal domain (RPA1, Homo sapiens, UniProt P27694)
E3 ubiquitin-protein ligase NEDD4: E3 ubiquitin-protein ligase NEDD4 (Homo sapiens, UniProt P46934)
Lysophospholipase-like protein 1: Lysophospholipase-like protein 1 (Mus musculus, UniProt Q3UFF7)

Protein sequences, listed by entry. Tags and fused reporters are not part of them. Residues count along the entry.
UniProt P45983, 1-384 isoform 3: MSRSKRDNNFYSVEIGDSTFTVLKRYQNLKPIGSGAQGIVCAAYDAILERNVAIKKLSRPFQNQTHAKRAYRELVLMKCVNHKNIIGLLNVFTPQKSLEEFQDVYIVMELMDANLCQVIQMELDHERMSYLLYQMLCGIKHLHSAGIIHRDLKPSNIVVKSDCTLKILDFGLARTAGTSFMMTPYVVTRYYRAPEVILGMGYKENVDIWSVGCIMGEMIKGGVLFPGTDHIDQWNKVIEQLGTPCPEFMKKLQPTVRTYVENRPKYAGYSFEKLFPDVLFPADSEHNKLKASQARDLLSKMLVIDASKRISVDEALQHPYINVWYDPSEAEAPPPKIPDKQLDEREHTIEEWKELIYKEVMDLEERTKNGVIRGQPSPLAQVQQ
UniProt Q14833, 33-912 limits assumed: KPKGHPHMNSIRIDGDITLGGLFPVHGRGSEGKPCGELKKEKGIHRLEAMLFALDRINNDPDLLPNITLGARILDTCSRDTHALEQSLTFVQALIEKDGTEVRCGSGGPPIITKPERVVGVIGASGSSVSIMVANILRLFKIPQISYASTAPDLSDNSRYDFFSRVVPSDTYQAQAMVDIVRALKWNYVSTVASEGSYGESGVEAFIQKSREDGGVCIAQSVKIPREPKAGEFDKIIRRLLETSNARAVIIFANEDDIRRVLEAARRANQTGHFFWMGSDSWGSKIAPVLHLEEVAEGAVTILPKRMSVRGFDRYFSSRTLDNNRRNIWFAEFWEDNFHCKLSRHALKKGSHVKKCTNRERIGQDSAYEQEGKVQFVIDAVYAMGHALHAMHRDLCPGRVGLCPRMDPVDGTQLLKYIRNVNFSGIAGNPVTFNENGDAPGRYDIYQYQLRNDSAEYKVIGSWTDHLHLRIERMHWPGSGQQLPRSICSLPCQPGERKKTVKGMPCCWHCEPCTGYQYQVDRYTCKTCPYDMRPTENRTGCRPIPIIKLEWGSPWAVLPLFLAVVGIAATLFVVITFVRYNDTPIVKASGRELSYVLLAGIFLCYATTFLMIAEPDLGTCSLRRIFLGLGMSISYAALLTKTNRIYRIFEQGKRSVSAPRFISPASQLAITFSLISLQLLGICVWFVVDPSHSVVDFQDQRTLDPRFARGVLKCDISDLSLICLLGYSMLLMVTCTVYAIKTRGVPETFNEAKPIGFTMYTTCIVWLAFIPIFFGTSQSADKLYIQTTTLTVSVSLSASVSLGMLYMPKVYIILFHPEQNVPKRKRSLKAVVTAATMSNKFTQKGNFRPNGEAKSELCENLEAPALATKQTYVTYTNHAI
UniProt P46934, whole entry, looked up: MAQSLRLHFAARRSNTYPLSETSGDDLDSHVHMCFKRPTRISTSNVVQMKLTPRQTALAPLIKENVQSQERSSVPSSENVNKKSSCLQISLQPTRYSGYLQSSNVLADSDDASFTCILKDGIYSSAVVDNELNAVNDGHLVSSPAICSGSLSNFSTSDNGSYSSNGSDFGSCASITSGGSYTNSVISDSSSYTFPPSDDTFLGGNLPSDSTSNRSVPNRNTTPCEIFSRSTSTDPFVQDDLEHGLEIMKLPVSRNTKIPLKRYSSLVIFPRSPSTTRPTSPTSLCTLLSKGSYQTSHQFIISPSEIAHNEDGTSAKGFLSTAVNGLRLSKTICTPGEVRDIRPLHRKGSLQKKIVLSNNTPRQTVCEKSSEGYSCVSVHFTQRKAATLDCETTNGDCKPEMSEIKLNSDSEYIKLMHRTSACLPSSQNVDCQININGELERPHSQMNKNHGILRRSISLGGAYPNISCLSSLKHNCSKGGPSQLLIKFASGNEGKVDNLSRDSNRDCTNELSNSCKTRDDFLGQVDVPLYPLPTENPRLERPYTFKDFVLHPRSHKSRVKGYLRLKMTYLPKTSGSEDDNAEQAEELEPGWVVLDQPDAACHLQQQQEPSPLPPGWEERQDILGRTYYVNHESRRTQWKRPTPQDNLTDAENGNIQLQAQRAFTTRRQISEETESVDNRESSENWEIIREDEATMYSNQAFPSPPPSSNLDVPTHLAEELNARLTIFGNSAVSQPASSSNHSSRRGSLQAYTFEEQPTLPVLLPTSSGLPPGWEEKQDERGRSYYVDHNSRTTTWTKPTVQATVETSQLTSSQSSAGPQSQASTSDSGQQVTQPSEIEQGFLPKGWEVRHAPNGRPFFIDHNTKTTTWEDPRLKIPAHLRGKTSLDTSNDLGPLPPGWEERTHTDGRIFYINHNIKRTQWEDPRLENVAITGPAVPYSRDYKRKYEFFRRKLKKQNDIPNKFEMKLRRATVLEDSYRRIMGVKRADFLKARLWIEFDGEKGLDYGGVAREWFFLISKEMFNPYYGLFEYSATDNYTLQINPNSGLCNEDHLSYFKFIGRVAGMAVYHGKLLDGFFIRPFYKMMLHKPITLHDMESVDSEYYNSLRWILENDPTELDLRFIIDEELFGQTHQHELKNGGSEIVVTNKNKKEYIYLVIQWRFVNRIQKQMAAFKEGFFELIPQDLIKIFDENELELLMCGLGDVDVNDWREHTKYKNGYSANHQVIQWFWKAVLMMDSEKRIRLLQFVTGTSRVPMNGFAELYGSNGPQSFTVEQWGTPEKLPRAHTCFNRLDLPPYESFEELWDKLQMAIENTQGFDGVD
UniProt P47898, whole entry E101D: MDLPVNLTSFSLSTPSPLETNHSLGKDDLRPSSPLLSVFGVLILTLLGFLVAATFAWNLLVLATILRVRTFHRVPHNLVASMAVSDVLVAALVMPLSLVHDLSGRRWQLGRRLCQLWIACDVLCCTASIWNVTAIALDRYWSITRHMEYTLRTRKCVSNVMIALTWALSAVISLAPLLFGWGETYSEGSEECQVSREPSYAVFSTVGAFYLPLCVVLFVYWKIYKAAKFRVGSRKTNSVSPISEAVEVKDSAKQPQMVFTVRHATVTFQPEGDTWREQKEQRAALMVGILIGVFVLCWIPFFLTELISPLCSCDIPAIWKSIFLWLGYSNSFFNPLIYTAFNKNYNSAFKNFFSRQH
UniProt Q06187, whole entry: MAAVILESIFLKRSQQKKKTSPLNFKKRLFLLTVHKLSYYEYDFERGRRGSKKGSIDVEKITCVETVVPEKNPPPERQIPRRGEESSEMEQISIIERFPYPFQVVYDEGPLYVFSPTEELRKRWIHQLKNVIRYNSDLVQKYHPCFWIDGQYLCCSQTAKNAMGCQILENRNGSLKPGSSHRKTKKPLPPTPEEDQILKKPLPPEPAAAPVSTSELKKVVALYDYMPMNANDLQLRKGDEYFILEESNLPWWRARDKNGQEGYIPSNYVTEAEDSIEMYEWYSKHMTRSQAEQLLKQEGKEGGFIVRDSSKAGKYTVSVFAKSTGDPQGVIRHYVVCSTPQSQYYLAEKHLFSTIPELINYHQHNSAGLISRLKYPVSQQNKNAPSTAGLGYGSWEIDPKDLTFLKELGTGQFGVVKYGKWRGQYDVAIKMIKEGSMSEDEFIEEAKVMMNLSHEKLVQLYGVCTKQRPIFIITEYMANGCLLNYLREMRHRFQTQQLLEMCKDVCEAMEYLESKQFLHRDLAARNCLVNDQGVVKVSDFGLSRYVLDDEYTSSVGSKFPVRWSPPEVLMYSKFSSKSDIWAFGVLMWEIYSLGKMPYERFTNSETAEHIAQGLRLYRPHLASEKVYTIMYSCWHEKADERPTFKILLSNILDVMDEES
UniProt Q99K82, whole entry: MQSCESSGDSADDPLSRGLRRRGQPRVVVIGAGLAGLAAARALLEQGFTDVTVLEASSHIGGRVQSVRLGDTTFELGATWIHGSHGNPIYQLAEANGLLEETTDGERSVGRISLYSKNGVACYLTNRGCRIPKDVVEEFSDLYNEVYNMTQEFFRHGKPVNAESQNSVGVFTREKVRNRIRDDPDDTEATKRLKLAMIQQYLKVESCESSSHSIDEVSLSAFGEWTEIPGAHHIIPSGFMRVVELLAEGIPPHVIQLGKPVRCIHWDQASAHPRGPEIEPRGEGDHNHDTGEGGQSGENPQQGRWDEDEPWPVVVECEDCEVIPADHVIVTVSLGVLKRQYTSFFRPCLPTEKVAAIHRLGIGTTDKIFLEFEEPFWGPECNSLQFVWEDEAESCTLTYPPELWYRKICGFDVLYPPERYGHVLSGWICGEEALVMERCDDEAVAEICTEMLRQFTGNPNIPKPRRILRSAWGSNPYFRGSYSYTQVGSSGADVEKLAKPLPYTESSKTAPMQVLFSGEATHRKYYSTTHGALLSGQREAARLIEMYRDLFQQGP
UniProt P31424, 21-1203 limits assumed: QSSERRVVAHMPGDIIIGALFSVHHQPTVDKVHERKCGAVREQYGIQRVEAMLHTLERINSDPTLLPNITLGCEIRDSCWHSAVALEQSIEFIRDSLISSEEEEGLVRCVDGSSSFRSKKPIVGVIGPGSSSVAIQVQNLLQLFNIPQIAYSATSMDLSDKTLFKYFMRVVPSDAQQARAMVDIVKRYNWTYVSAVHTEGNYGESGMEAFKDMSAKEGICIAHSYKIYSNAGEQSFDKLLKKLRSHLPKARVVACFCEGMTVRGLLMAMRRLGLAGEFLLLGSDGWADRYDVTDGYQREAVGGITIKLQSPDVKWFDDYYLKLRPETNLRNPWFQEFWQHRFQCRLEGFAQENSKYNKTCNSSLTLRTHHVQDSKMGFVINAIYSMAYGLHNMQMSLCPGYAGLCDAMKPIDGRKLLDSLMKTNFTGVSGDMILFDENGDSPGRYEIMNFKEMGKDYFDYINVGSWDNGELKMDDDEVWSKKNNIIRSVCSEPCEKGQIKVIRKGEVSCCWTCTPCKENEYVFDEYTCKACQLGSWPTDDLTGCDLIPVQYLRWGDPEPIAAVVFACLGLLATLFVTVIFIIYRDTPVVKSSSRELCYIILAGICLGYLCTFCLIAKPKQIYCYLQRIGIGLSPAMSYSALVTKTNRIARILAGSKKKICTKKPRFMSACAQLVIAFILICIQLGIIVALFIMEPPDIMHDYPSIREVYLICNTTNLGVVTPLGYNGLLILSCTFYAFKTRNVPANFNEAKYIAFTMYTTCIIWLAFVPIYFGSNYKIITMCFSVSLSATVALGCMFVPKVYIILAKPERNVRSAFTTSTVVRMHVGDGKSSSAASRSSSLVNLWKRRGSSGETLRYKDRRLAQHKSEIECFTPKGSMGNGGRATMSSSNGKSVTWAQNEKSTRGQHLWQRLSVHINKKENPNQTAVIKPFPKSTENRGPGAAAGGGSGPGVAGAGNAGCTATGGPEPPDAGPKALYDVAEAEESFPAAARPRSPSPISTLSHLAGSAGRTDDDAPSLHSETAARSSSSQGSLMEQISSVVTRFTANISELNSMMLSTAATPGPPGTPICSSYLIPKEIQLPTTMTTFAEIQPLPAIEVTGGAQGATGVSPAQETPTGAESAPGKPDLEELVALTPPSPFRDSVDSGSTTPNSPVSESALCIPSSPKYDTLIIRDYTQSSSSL
UniProt P43220, whole entry, looked up: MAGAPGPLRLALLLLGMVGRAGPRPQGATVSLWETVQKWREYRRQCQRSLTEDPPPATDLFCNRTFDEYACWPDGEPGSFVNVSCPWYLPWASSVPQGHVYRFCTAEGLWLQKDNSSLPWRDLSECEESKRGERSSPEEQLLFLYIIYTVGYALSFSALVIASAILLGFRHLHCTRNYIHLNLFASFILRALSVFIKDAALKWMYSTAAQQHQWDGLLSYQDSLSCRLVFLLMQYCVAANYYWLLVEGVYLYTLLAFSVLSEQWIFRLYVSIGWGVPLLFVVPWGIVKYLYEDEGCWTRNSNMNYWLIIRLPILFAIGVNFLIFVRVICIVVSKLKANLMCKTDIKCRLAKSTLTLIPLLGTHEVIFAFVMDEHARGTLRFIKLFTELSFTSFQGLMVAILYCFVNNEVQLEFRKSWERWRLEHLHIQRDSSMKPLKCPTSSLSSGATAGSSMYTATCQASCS
UniProt P05067, whole entry, looked up: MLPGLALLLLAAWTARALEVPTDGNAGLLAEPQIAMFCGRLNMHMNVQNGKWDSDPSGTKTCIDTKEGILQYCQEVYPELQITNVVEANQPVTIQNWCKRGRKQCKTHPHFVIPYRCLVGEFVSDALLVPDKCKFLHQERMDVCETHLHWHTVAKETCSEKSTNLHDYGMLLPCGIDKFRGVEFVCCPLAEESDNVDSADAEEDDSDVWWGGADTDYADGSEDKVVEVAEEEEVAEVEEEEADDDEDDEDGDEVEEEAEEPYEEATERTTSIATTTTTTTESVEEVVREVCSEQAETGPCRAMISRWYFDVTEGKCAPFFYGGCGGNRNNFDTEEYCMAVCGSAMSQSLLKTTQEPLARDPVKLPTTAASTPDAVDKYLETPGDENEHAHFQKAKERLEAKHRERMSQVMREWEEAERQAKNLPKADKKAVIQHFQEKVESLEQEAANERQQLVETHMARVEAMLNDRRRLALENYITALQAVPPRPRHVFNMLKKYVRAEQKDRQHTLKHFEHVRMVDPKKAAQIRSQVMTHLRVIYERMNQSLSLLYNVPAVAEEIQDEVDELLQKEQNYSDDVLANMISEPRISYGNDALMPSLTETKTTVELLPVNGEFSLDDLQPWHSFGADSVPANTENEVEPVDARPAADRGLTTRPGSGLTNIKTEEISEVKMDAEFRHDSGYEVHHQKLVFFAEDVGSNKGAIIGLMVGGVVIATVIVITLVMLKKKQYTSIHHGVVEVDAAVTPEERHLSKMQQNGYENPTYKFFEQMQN

SMILES	target	test	test system	conditions	scale	endpoint	result
NC(N)=NC(=O)N1CCc2c(F)ccc(-c3c(F)cc(F)cc3F)c2C1	5-hydroxytryptamine receptor 5A (HTR5A, Homo sapiens, UniProt P47898, E101D)	radioligand competition binding		concentration not given, mutant E101D, added: 3H-LSD		binding affinity	no effect
Cc1cc(NC(=O)c2cccc(NC(=O)C3=CC(C)(C)CC3=O)c2)ccc1Nc1nccc(-c2cccnc2)n1	MAPK8	kinase activity, inhibitor		44.44 µM, unit not given, added: 10 mM GSH	baseline: DMSO	remaining activity	0.0508
COc1ccc(NC(=O)CN2CCCN(S(=O)(=O)c3ccco3)CC2)c(OC)c1	GRM4	calcium mobilization, positive allosteric modulator	CHO cells with Gqi5	added: glutamate	baseline: PHCCC maximal response	maximal response	36.2%
CC(=O)Nc1ncc(CN2CC[C@H](Oc3cccc(F)n3)C[C@@H]2C)s1 [isotope labelled]	Protein O-GlcNAcase (OGA, Homo sapiens, UniProt O60502)	radioligand binding	human Alzheimer's disease, postmortem cortex homogenate	dose not given	baseline: non-demented control brain	binding potential increase	~40%
CCCCCN(C)C(=O)Oc1ccccc1C=C1Cc2cc(OC)c(OC)cc2C1=O	Cocaine esterase (CES2, Homo sapiens, UniProt O00748)	inactivator				KI	7.05 nM
CC(=O)N[C@H]1[C@@H](O[C@H](C)[C@H](N)C(=O)O)O[C@H](CO)[C@H](O)[C@@H]1O[C@@H]1O[C@H](CO)[C@H](O)[C@H](O)[C@H]1O	CLEC10A, carbohydrate recognition domain (Homo sapiens, UniProt Q8IUN9)	binding, ITC		293 K		ΔG	-2.99 kcal/mol
CC(C)(C)c1ccnc(NC(=O)c2ccc(-c3nn([C@@H]4CCCN(C(=O)C5CC5)C4)c4ncnc(N)c34)cc2)c1	Tyrosine-protein kinase BTK, non-phosphorylated (BTK, Homo sapiens, UniProt Q06187)	TR-FRET binding kinetics		25 °C, unphosphorylated protein		residence time	2.2 min
COc1ccc(S(=O)(=O)N2CCCN(CC(=O)Nc3ccc(OC)cc3OC)CC2)cc1	GRM4	calcium mobilization, positive allosteric modulator	CHO cells with Gqi5	added: glutamate	baseline: PHCCC maximal response	maximal response	69.5%
COC(=O)[C@@]1(C)C=C(C(=O)Nc2cccc(C(=O)NC34CC(Nc5nccc(-c6cccnc6)n5)(C3)C4)c2)C(=O)CC1	MAPK8	kinase activity, inhibitor		0.06097 µM, unit not given, added: 10 mM GSH	baseline: DMSO	remaining activity	0.296
Cc1ncc(COc2ccc3c(c2)c(=O)c(C(N)=O)cn3-c2ccc(F)cc2)cn1	Metabotropic glutamate receptor 2 (Grm2, Rattus norvegicus, UniProt P31421)	calcium mobilization, negative allosteric modulator		30 µM, added: glutamate 100 µM	baseline: glutamate maximum	response	1.3 ± 0.58%
Cc1ccc(C(=O)Nc2ccccc2C(=O)O)cc1S(=O)(=O)Nc1ccc2ccccc2c1	RPA1 N-terminal domain	binding, fluorescence polarisation competition		added: FITC-ATRIP probe		ligand efficiency	0.17
NCC(c1ccc(O)cc1)c1ccc(Oc2ccccc2)cc1 (centres unmarked)	Trace amine-associated receptor 1 (Rattus norvegicus, UniProt Q923Y9, M268T)	cAMP production, agonist		mutant	baseline: wild type	efficacy decrease	≤ 12%
NCCCNCCCCNCCCNCc1ccc2ccccc2c1	Smox (Mus musculus, UniProt Q99K82)	substrate			baseline: spermine	relative Vmax	0.4
CCOC(=O)/C=C/CNCCN1c2ccccc2CCc2ccc(Cl)cc21	E3 ubiquitin-protein ligase NEDD4	inhibitor, Ub-TR-FRET		33.33 µM, 1 h preincubation, HECT domain, added: ATP 2 mM	higher = more ubiquitination	ubiquitination TR-FRET signal AUC	161000 a.u. and 164000 a.u. and 158000 a.u.
NCCOCCOCCNC(=O)[C@@H]1CCCCNC(=O)[C@H](Cc2ccc([N+](=O)[O-])cc2)NC(=O)[C@H](Cc2ccco2)NC(=O)C[C@H](O)[C@H](CC2CCCCC2)NC(=O)/C=C\C(=O)N1	Vascular endothelial growth factor receptor 2 (KDR, Homo sapiens, UniProt P35968)	activator, Z'-LYTE		10 µM		enzyme activity increase	70%
N#Cc1cnc(Nc2nc3ccccc3o2)nc1-c1ccccn1	Metabotropic glutamate receptor 5 (Grm5, Rattus norvegicus, UniProt P31424)	calcium mobilization, negative allosteric modulator		added: glutamate EC80	baseline: glutamate maximum	maximal response	22 ± 2%

SMILES	target	test	test system	conditions	scale	endpoint	result
Nc1nc2c(ncn2COCCNC(=O)c2cc3cc(Br)ccc3c(Br)c2O)c(=O)[nH]1	Deoxynucleoside triphosphate triphosphohydrolase SAMHD1 (SAMHD1, Homo sapiens, UniProt Q9Y3Z3)	differential scanning fluorimetry		50 µM, 3 µM apo protein		delta Tm	0.8 °C
CC(C)c1ccc(C(=O)Nc2ccccc2C(=O)O)cc1S(=O)(=O)Nc1ccc(Cl)c(Cl)c1	RPA1 N-terminal domain	binding, fluorescence polarisation competition		added: FITC-ATRIP probe		ligand efficiency	0.22
CSCC[C@H](NC(=O)[C@H](CC(C)C)NC(=O)[C@H](CC(N)=O)NC(=O)c1ccccc1N)C(=O)N[C@@H](CCCCN)C(=O)N[C@@H](CCCCN)C(=O)N[C@@H](CO)C(=O)N[C@H](C(=O)N[C@@H](CCCCNc1ccc([N+](=O)[O-])cc1[N+](=O)[O-])C(N)=O)[C@@H](C)O	Mitochondrial intermediate peptidase (MIPEP, Homo sapiens, UniProt Q99797)	substrate, FRET peptide hydrolysis				kcat	0.028 s⁻¹
O=S(=O)(Cc1ccc(-c2nc(-c3cccnc3)no2)o1)c1ccc(Cl)cc1	Catenin beta-1, residues 141-305 (CTNNB1, Homo sapiens, UniProt P35222)	isothermal titration calorimetry		concentration not given, 25 °C		entropy change	26.4 cal/(mol·K)
C/C=C/Cn1c(Cc2cc(OC)c(OC)c(OC)c2)nc2c(N)ncnc21	Heat shock protein HSP 90-alpha, N-terminal domain (HSP90AA1, Homo sapiens, UniProt P07900)	isothermal titration calorimetry		298 K, N-terminal domain		ΔH	-10.9 ± 0.18 kcal/mol
CCOC(=O)/C=C/CNCCCCN1c2ccccc2CCc2ccc(Cl)cc21	E3 ubiquitin-protein ligase NEDD4	single turnover transthioesterification, inhibitor		160 µM, 1 h preincubation		E2 to E3 transthioesterification	no effect
CN(Cc1ccccc1)Cc1cn(CC(C)(C)c2c[nH]c3ccccc23)nn1	Glucagon-like peptide 1 receptor (GLP1R, Homo sapiens, UniProt P43220)	cAMP accumulation, positive allosteric modulator, HTRF		0.6 µM, purified compound, added: GLP-1(9-36) at EC20	baseline: BETP	Emax	95 ± 1%
Cc1nc(-c2ccc(OCC(C)C)c(C#N)c2)sc1C(N)=O	Metabotropic glutamate receptor 4 (Grm4, Rattus norvegicus, UniProt P31423)	thallium flux	HEK293 GIRK		baseline: glutamate max	efficacy	51.3 ± 4%
N#Cc1ccc2[nH]cc(/C=C/c3ccccc3)c2c1	Amyloid-beta precursor protein, Aβ1-40 (APP, Homo sapiens, UniProt P05067)	Aβ40 aggregation, thioflavin T fluorescence		25 µM		inhibition	0%
CCOC(=O)/C=C/CNCCCN1c2ccccc2CCc2ccccc21	E3 ubiquitin-protein ligase NEDD4	inhibitor, Ub-TR-FRET		0.01524 µM, 1 h preincubation, HECT domain, added: ATP 2 mM	higher = more ubiquitination	ubiquitination TR-FRET signal AUC	131000 a.u. and 129000 a.u. and 130000 a.u.
O=C(Nc1cccnc1)C12CC1/C(=N\O)c1ccccc1O2 (centres unmarked)	GRM4	positive allosteric modulator, calcium mobilization	CHO expressing Gqi5	concentration not given, added: glutamate EC20	baseline: glutamate 1 mM	response	61.8 ± 2.3%
Cc1nc2ccc(S(=O)(=O)n3nc(NCCc4ccc(Cl)cc4)nc3N)cc2s1	Lysophospholipase-like protein 1	activator, gel-based ABPP, FP-rhodamine	HEK293 overexpressing Lysophospholipase-like protein 1	10 µM		activation	0%
Cc1cc(SCc2sc(-c3cccc(C(=O)NCCCN(C)C)c3)nc2C)ccc1OCC(=O)O	Vitamin D3 receptor (VDR, Homo sapiens, UniProt P11473)	reporter gene, antagonist	HEK-293T	up to 100 µM, CYP24A1 promoter luciferase, added: 1,25(OH)2D3 10 nM		IC50	inactive
Nc1nc(SCc2ccc(Cl)cc2)nn1S(=O)(=O)c1cccc([N+](=O)[O-])c1	Lysophospholipase-like protein 1	activator, gel-based ABPP FP-rhodamine			baseline: DMSO	probe labelling	2.7 fold
CC(=O)N1CCN(c2ccc(Nc3ncc4c(n3)N(C)C(=O)N(c3cc(NC(=O)c5cccc(C(F)(F)F)c5)ccc3C)C4)cn2)CC1	FGFR4/Transcription factor ETV6 (Homo sapiens, UniProt P22455+P41212, N535K)	cell proliferation	Ba/F3 TEL-FGFR4 N535K	72 h		GI50	36 nM
CCS(=O)(=O)c1nc(-c2ccc(F)cc2)cc(C(F)F)n1	Secretin receptor (SCTR, Homo sapiens, UniProt P47872)	binding, TR-FRET competition binding	HEK293 cell membranes	added: fluorescent secretin 6 nM		Emax	no effect

Excerpt of the above:
SMILES	target	test	test system	conditions	scale	endpoint	result
CC(C)(C)c1ccnc(NC(=O)c2ccc(-c3nn([C@@H]4CCCN(C(=O)C5CC5)C4)c4ncnc(N)c34)cc2)c1	Tyrosine-protein kinase BTK, non-phosphorylated (BTK, Homo sapiens, UniProt Q06187)	TR-FRET binding kinetics		25 °C, unphosphorylated protein		residence time	2.2 min
NCC(c1ccc(O)cc1)c1ccc(Oc2ccccc2)cc1 (centres unmarked)	Trace amine-associated receptor 1 (Rattus norvegicus, UniProt Q923Y9, M268T)	cAMP production, agonist		mutant	baseline: wild type	efficacy decrease	≤ 12%
